# Results gathered from unrelated publications.
# Every numbered part comes from another study and shows a few of its results, in no order. Positions count from the first letter of the parent shown.

# Study 1
# Target: Histone acetyltransferase KAT6A, winged helix 1, GST fusion (KAT6A, Homo sapiens, UniProt Q92794, residues 1-85)
# Method: protein binding microarray
# Form: double-stranded DNA, one strand shown
# Medium: in vitro
# Tested at: not given
# Setting: 8-mer, flanks averaged, mean of 2 arrays, mostly near background
# Relative to: not given
# Direction: higher = stronger binding
# Target sequence (chain): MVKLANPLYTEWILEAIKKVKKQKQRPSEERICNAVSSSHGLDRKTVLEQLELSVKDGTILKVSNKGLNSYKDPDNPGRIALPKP
Oligonucleotide,E-score
GAGGAAAC,-0.0499
ACATGGGT,-0.0769
CAGAGTCC,-0.0947
ATCGGAGC,0.039
GCATATCC,-0.0252
GGCCGAGA,0.175
AGGCATCC,-0.216
AAGCTATG,-0.0738
ACAACAAA,-0.047
CGCAACCC,0.124

# Study 2
# Target: ABI1, truncated, D143A, DHFR fusion (Arabidopsis thaliana)
# Method: DHFR PCA, deep sequencing
# Medium: yeast
# Setting: methotrexate growth selection, single substitutions
# Added: (+)-ABA 0 µM
# Relative to: wild-type fitted maximum
# Direction: higher = stronger binding
# Starting sequence: PYL1, truncated, DHFR fusion (Arabidopsis thaliana); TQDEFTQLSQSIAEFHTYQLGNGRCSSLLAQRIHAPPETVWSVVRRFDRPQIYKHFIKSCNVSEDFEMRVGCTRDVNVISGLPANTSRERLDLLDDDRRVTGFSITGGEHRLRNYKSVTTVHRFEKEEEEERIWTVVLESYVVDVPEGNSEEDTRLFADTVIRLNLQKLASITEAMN
Substitution,relative binding score
L166V,3.83%
T86R,12.7%
C60A,0.409%
G71M,2.12%
K58E,15.9%
Q19N,29.5%

# Study 3
# Target: CCND3, cyclin fold, Cln2 fusion (human)
# Method: yeast growth competition, sequencing
# Medium: yeast
# Setting: weak parent motif
# Relative to: not given
# Direction: higher = stronger binding
# Starting sequence: PKN2 docking peptide (human); DSTVTKLDFDLEP
Substitution,normalised enrichment score
DSTVTKLDFDLEA [P13A],-0.273
DSTATKLDFDLEP [V4A],-0.408
DSTVTKADFDLEP [L7A],-0.0927
DSTVAKLDFDLEP [T5A],-0.358
DSTVTKLDFALEP [D10A],-0.409
DSTVTKLDFDAEP [L11A],-0.167

# Further values, each from its own experiment
Molecule,target,test,test system,setting,scale,measurement,result
"PhoQ, residues 284 288 289 292 302 303 ASSHFY","PhoP, residues 12 14 15 18 19 LHSVQ (Escherichia coli, UniProt P23836)","Sort-seq, measured: YFP reporter",E. coli,"PhoQ-PhoP variant library, added: 10 µM Mg2+","relative to: high Mg2+ state, higher = stronger signaling",fold induction,0.996

# Some of these lines once more (study 2):
Substitution,relative binding score
L166V,3.83%
Q19N,29.5%
C60A,0.409%
G71M,2.12%
